Assay results of several laboratories.
A part holds a random share of what one study measured.

Sample 1
Target: UDP-N-acetylglucosamine--peptide N-acetylglucosaminyltransferase 110 kDa subunit (OGT, Homo sapiens, UniProt O15294)
Observed: binding
Technique: phage display NGS
Molecule type: peptide
Concentration: concentration not given
Notes: panning round 2
Relative to: input library
Residues (O15294 1-1046): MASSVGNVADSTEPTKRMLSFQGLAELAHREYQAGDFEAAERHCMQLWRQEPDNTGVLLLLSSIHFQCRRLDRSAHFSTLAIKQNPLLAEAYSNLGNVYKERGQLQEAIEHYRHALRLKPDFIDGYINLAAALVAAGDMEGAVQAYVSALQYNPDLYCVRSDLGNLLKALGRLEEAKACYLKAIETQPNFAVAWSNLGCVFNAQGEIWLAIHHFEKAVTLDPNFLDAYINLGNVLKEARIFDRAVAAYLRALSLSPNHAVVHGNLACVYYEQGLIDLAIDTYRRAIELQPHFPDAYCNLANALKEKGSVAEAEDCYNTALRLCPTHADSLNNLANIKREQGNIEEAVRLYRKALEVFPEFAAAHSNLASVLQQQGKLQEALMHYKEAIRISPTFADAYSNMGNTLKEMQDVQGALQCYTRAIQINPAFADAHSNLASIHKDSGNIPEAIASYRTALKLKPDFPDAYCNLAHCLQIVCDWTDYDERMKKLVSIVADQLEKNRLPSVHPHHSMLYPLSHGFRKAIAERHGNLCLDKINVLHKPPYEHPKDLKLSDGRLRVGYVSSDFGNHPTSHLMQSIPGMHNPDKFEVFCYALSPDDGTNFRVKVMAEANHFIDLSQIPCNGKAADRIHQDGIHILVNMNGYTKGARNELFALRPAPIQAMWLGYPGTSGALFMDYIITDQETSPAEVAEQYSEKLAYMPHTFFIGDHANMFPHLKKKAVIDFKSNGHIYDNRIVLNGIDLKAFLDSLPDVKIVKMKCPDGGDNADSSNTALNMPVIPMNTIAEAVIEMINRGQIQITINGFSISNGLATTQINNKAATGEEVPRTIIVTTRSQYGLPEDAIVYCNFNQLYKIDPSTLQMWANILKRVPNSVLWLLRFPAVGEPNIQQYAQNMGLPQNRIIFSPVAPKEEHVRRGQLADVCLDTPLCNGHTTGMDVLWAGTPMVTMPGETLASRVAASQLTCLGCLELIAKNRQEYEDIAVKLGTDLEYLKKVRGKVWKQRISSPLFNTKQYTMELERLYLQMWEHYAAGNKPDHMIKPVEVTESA
Molecule | enrichment fold change
TYRHHNHHPLGEADV | 11.7
TNMYRYPTHAHFQIK | 4.27
QSDFLPKYQLDLFSY | 13

Further values, each from its own experiment
Molecule | tested on | test | system | conditions | scale | quantity | value
COc1cc(C(=O)OCCCN2CCCN(CCCOC(=O)c3cc(OC)c(OC)c(OC)c3)CC2)cc(OC)c1OC |  |  | CD-1 mice, male, spinal cord | subcutaneous, 30 mg/kg, 0.1667 h |  | concentration | 104 ng/mL
MTBP (Homo sapiens, UniProt Q96DY7) | VPS4A (Homo sapiens, UniProt Q9UN37) | cross-linking MS |  | added: DSSO |  | cross-linked residues | K289 to K69
C=CC[C@@H]1/C=C(\C)C[C@H](C)C[C@H](OC)[C@H]2O[C@@](O)(C(=O)C(=O)N3CCCC[C@H]3C(=O)O[C@H](/C(C)=C/[C@@H]3CC[C@@H](O)[C@H](OC)C3)[C@H](C)[C@@H](O)CC1=O)[C@H](C)C[C@@H]2OC | HEK-293T | pseudovirus infection, FDA-approved drug library counter-screen | VSV pseudotyped with VSV-G | 10 µM, 16 h | relative to: vehicle-treated | GFP-positive cells | 139%

Excerpt of the above (further values, each from its own experiment):
Molecule | tested on | test | system | conditions | scale | quantity | value
COc1cc(C(=O)OCCCN2CCCN(CCCOC(=O)c3cc(OC)c(OC)c(OC)c3)CC2)cc(OC)c1OC |  |  | CD-1 mice, male, spinal cord | subcutaneous, 30 mg/kg, 0.1667 h |  | concentration | 104 ng/mL
